Assay results of several laboratories.

SMILES	organism	assay	test system	setting	MIC
C[C@H](NC(=O)CO/N=c1\cc2n(-c3ccc(Cl)cc3)c3ccccc3nc-2cc1Nc1ccc(Cl)cc1)C(=O)O	Mycobacteroides abscessus	bacterial growth	ATCC 19977		> 30 µM
CC(=O)NC[C@H]1CN(c2ccc(N3CCOCC3)c(F)c2)C(=O)O1	Staphylococcus aureus	broth microdilution	MRSA NRS123 USA400		1 µM
CC1(C)S[C@@H]2[C@H](NC(=O)[C@H](N)c3ccccc3)C(=O)N2[C@H]1C(=O)O	Escherichia coli	broth microdilution	ATCC 25922 wild type	no clavulanic acid	1.56 µg/mL
CC1(C)S[C@@H]2[C@H](NC(=O)[C@H](N)c3ccc(O)cc3)C(=O)N2[C@H]1C(=O)O	Enterococcus				16 µg/mL
N=C(N)c1cccc(OCc2ccc(COc3cccc(C(=N)N)c3)cc2)c1	Escherichia coli		mcr-2 polymyxin-resistant	20 h, compound alone	> 200 µg/mL
C=C1C(=O)O[C@@H](CCCCCCCCCCCCC)[C@@H]1C(=O)O	Candida parapsilosis		CP1		32 µg/mL
CCOC(=O)CNC(=O)CO/N=c1\cc2n(-c3ccc(Cl)cc3)c3ccccc3nc-2cc1Nc1ccc(Cl)cc1	Mycobacteroides abscessus	bacterial growth	clinical isolate		> 30 µM
CC1(C)SC2C(NC(=O)C(NC(=O)C3=C(O)C(Cc4ccccc4)NC3=O)c3ccccc3)C(=O)N2C1C(=O)O (centres unmarked)	Escherichia coli	broth microdilution	ATCC 25922 wild type	together with: clavulanic acid 6 µg/mL	6.25 µg/mL
C[C@@H]1[C@H](O)[C@@H](C)/C=C/C=C/C=C/C=C/C=C/C=C/C=C/[C@H](O[C@@H]2O[C@H](C)[C@@H](O)[C@H](N)[C@@H]2O)C[C@@H]2O[C@](O)(C[C@@H](O)C[C@@H](O)[C@H](O)CC[C@@H](O)C[C@@H](O)CC(=O)O[C@H]1C)C[C@H](O)[C@H]2C(=O)O	Candida parapsilosis	broth dilution	ATCC 22099	48 h, 37 °C	32 µg/mL
O=C(CNc1ccc(Cl)cc1)NC1C2CC3CC(C2)CC1C3 (centres unmarked)	Mycobacteroides abscessus	broth microdilution		120 h	inactive
C=CCO/N=c1\cc2n(-c3ccc(Cl)cc3)c3ccccc3nc-2cc1Nc1ccc(Cl)cc1	Mycobacteroides abscessus	bacterial growth	ATCC 19977		> 30 µM
N=C(N)c1ccc(OCc2cc(Br)cc(COc3ccc(C(=N)N)cc3)c2)cc1	Escherichia coli		W3110	in combination, checkerboard, together with: rifampicin	3.13 µg/mL
CCCCCCCCCC(=O)N[C@@H](Cc1c[nH]c2ccccc12)C(=O)N[C@H](CC(N)=O)C(=O)N[C@@H](CC(=O)O)C(=O)N[C@@H]1C(=O)NCC(=O)N[C@@H](CCCN)C(=O)N[C@@H](CC(=O)O)C(=O)N[C@H](C)C(=O)N[C@@H](CC(=O)O)C(=O)NCC(=O)N[C@H](CO)C(=O)N[C@@H]([C@H](C)CC(=O)O)C(=O)N[C@@H](CC(=O)c2ccccc2N)C(=O)O[C@@H]1C	Enterococcus	broth microdilution	VRE 155, Mueller-Hinton broth, Mg2+ 10 mg/L	16 h, together with: Ca2+ 2.5 mM	0.25 µg/mL
CO/N=c1\cc2n(-c3ccc(Cl)cc3)c3ccccc3nc-2cc1Nc1ccc(Cl)cc1	Mycobacteroides abscessus	bacterial growth	ATCC 19977		> 30 µM
C[C@@H](O)[C@H]1C(=O)N2C(C(=O)O)=C(S[C@@H]3CN[C@H](C(=O)N(C)C)C3)[C@H](C)[C@H]12	Salmonella enterica Derby	broth microdilution	clinical isolate RKI 270/14		≤ 0.5 µg/mL
C#CCON=C1C=CC(=C(C#N)c2ccccc2)C=C1	Candida parapsilosis	broth dilution	ATCC 22099	48 h, 37 °C	32 µg/mL
C[C@H](NC(=O)CO/N=c1\cc2n(-c3ccc(Cl)cc3)c3ccccc3nc-2cc1Nc1ccc(Cl)cc1)C(=O)OC(C)(C)C	Mycobacteroides abscessus	bacterial growth	ATCC 19977		> 30 µM
CCCCCCCCCC(=O)N[C@@H](Cc1c[nH]c2ccccc12)C(=O)N[C@H](CC(N)=O)C(=O)N[C@@H](CC(=O)O)C(=O)N[C@@H]1C(=O)NCC(=O)N[C@@H](CCCN)C(=O)N[C@@H](CC(=O)O)C(=O)N[C@H](C)C(=O)N[C@@H](CC(=O)O)C(=O)NCC(=O)N[C@H](CO)C(=O)N[C@@H]([C@H](C)CC(=O)O)C(=O)N[C@@H](CC(=O)c2ccccc2N)C(=O)O[C@@H]1C	Staphylococcus aureus		SH1000	together with: phosphatidylcholine, molar ratio 2	1 µg/mL
CC1(C)S[C@@H]2[C@H](NC(=O)[C@H](N)c3ccc(O)cc3)C(=O)N2[C@H]1C(=O)O	Bacillus cereus	broth microdilution	MTCC 430		8 µg/mL
N=C(N)c1ccc(OCc2ccc(-c3ccccc3)cc2COc2ccc(C(=N)N)cc2)cc1	Escherichia coli		mcr-2 polymyxin-resistant	20 h, compound alone	25 µg/mL
O=C(O)CO/N=c1\cc2n(-c3ccc(Cl)cc3)c3ccccc3nc-2cc1Nc1ccc(Cl)cc1	Mycobacteroides abscessus	bacterial growth	ATCC 19977		> 30 µM
O=C(O)c1ccc(NCc2ccc(Cl)cc2)cc1	Enterococcus				128 µg/mL
CNC(C)C1CCC(N)C(OC2C(N)CC(N)C(OC3OCC(C)(O)C(NC)C3O)C2O)O1 (centres unmarked)	Pseudomonas aeruginosa		clinical isolate RKI-No_480/15		> 8 µg/mL
